Measurements from different studies.
Compare with care: the assays were run in different laboratories. ± gives the spread as reported.
Oprk1: Kappa-type opioid receptor (Oprk1, Rattus norvegicus, UniProt P34975)

CNC(=O)C1CCN(c2ccccc2NC(=O)c2ccc(-c3cc(O)ccc3C)c(C)n2)CC1  Ki (SRC (Homo sapiens, UniProt P12931); cell-free assay, TR-FRET): 0.7 nM
CC[C@H](C)[C@H](NC(=O)CN)C(=O)N[C@H](C(=O)N[C@@H](CC(N)=O)C(=O)N[C@H](C(=O)N[C@@H](CC(C)C)C(=O)N[C@@H](CCC(N)=O)C(=O)N[C@@H](CCCCN)C(=O)N[C@@H](Cc1ccc(O)cc1)C(=O)N[C@@H](Cc1ccc(O)cc1)C(=O)N[C@H]1CSSC[C@@H]2NC(=O)[C@H](CCCCN)NC(=O)[C@H](CCCNC(=N)N)NC(=O)CNC(=O)[C@H](CCCNC(=N)N)NC(=O)[C@H]([C@@H](C)O)NC(=O)[C@H](CO)NC(=O)[C@@H]3CSSC[C@H](NC(=O)[C@H](CCCNC(=N)N)NC(=O)CNC(=O)CNC(=O)[C@H](CCCNC(=N)N)NC(=O)[C@H](C(C)C)NC(=O)[C@H](CCCNC(=N)N)NC1=O)C(=O)N[C@@H](C)C(=O)N[C@@H](C(C)C)C(=O)N[C@@H](CC(C)C)C(=O)N[C@@H](CO)C(=O)N[C@@H](CSSC[C@@H](C(=O)N[C@@H](CCCNC(=N)N)C(=O)N[C@@H](CCCNC(=N)N)C(=O)N[C@@H](CCCCN)C(=O)N[C@@H](CCCCN)C(N)=O)NC2=O)C(=O)N[C@@H](CC(C)C)C(=O)N1CCC[C@H]1C(=O)N[C@@H](CCCCN)C(=O)N[C@@H](C)C(=O)N[C@@H](CCC(=O)O)C(=O)N[C@@H](CCC(N)=O)C(=O)N[C@@H]([C@@H](C)CC)C(=O)NCC(=O)N[C@@H](CCCCN)C(=O)N3)[C@@H](C)O)[C@@H](C)CC  Ki (MC1R (Homo sapiens, UniProt Q01726); ligand displacement in cells): 146 nM
CC[C@H](C)[C@H](NC(=O)[C@@H]1CSSC[C@H](NC(=O)[C@H](Cc2ccc(O)cc2)NC(=O)CNC(C)=O)C(=O)N[C@@H](CO)C(=O)N[C@@H](CCCNC(=N)N)C(=O)N[C@@H](CO)C(=O)N[C@@H](Cc2ccc(O)cc2)C(=O)N2CCC[C@H]2C(=O)N2CCC[C@H]2C(=O)N[C@@H](C(C)C)C(=O)N1)C(=O)N1CCC[C@H]1C(=O)N[C@@H](CC(=O)O)C(=O)O  Ki (Mannan-binding lectin serine protease 2 (Homo sapiens, UniProt O00187); with: 250 µM Z-L-Lys-SBzl substrate): 200 ± 10 nM
CC[C@H](C)[C@H](NC(=O)[C@H](CCCNC(=N)N)NC(=O)[C@H](CCCNC(=N)N)NC(=O)[C@@H]1C/C=C/COc2ccc(cc2)C[C@H](NC(=O)[C@H](Cc2ccccc2)NC(=O)[C@H](Cc2ccccc2)NC(C)=O)C(=O)N[C@@H](CCCNC(=N)N)C(=O)N1)C(=O)N[C@@H](CCCNC(=N)N)C(=O)N1CCC[C@H]1C(=O)N[C@@H](CCCCN)C(N)=O  Ki (Oprk1; ligand displacement, radioligand): 398 nM
CC(=O)NCC(=O)N(C)[C@@H](Cc1ccccc1)C(=O)N[C@@H](Cc1ccccc1)C(=O)N[C@@H](Cc1c[nH]c2ccccc12)C(=O)N[C@@H](CCCNC(=N)N)C(=O)N[C@@H](CC(C)C)C(=O)N[C@@H](CCCNC(=N)N)C(=O)N[C@@H](CCCNC(=N)N)C(=O)N[C@H](C)C(=O)N[C@@H](CCCNC(=N)N)C(=O)N1CCC[C@H]1C(=O)N[C@@H](CCCCN)C(N)=O  Ki (Oprk1; ligand displacement, radioligand): 21.9 nM
O=c1sc2ccccc2n1CCCCCCN1CCCCCC1  Ki (Sigmar1 (Rattus norvegicus, UniProt Q9R0C9); binding, radioligand binding; rat liver membranes; with: [3H](+)-pentazocine 5 nM): 7.5 ± 0.6 nM
OB(O)c1cc2ccc(OCc3ccccc3)cc2[nH]1  Ki (Beta-lactamase (ampC, Escherichia coli K-12, UniProt P00811); enzyme activity, inhibitor; with: CENTA): 2370 nM
CC(=O)N[C@@H](Cc1ccc(O)cc1)C(=O)N[C@@H](CCCNC(=N)NC(=O)NCCCCN)C(=O)N[C@@H](CC(C)C)C(=O)N[C@@H](CCCNC(=N)N)C(=O)N[C@@H](Cc1ccc(O)cc1)C(N)=O  Ki (NPY5R (Homo sapiens, UniProt Q15761); ligand displacement, radioligand): > 5000 nM
OC(COCc1ccccc1Cl)CN1CC=C(c2c[nH]c3ccccc23)CC1 (racemic)  Ki (SLC6A3 (Homo sapiens, UniProt Q01959); ligand displacement, radioligand): 2130 nM
N=C(N)NC(=O)c1ccc(C(=O)NCCCC[C@H](NC(=O)CNC(=O)CCC(=O)NN=Cc2cc(C=NNC(=O)CCC(=O)NCC(=O)N[C@@H](CCCCNC(=O)c3ccc(C(=O)NC(=N)N)[nH]3)C(=O)N[C@@H](Cc3c[nH]c4ccccc34)C(=O)N[C@@H](CCCCN)C(N)=O)cc(C=NNC(=O)CCC(=O)NCC(=O)N[C@@H](CCCCNC(=O)c3ccc(C(=O)NC(=N)N)[nH]3)C(=O)N[C@@H](Cc3c[nH]c4ccccc34)C(=O)N[C@@H](CCCCN)C(N)=O)c2)C(=O)N[C@@H](Cc2c[nH]c3ccccc23)C(=O)N[C@@H](CCCCN)C(N)=O)[nH]1  Ki (Tryptase beta-2 (TPSB2, Homo sapiens, UniProt P20231); enzyme activity, high-affinity mode, inhibitor): 114 nM

Excerpt of the above:
CC[C@H](C)[C@H](NC(=O)[C@H](CCCNC(=N)N)NC(=O)[C@H](CCCNC(=N)N)NC(=O)[C@@H]1C/C=C/COc2ccc(cc2)C[C@H](NC(=O)[C@H](Cc2ccccc2)NC(=O)[C@H](Cc2ccccc2)NC(C)=O)C(=O)N[C@@H](CCCNC(=N)N)C(=O)N1)C(=O)N[C@@H](CCCNC(=N)N)C(=O)N1CCC[C@H]1C(=O)N[C@@H](CCCCN)C(N)=O  Ki (Oprk1; ligand displacement, radioligand): 398 nM
